Measured values pooled from the literature.
Each numbered part is a random draw from the data of one study; scales do not carry over between parts. Values joined by “and” are separate records of one study, mostly repeats; a detail may differ.
UniProt P52564, sequence (whole entry, looked up): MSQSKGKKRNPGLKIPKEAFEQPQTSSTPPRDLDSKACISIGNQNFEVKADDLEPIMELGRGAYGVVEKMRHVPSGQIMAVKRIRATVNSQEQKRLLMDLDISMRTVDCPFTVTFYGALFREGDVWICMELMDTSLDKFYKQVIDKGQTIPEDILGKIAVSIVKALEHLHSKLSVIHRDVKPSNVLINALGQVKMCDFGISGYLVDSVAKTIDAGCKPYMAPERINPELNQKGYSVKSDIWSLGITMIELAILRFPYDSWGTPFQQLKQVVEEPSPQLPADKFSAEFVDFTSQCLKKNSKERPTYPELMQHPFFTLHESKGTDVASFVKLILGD
UniProt Q9Y616, sequence (whole entry, looked up): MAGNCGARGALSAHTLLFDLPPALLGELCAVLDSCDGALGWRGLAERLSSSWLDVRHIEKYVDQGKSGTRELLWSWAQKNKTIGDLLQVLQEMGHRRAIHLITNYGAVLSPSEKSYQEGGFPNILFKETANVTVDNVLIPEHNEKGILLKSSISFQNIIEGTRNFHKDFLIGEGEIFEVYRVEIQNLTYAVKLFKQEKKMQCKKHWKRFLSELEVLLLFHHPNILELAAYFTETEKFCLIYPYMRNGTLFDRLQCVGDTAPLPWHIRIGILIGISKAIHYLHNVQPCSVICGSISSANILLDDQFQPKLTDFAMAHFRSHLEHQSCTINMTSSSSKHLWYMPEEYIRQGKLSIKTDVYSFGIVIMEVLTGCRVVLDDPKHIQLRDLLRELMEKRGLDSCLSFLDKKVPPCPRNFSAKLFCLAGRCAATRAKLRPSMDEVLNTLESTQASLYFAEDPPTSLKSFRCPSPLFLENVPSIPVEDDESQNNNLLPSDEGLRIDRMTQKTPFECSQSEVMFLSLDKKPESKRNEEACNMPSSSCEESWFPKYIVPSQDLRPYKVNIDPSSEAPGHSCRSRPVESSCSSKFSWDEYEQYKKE
UniProt Q16513, sequence (whole entry, looked up): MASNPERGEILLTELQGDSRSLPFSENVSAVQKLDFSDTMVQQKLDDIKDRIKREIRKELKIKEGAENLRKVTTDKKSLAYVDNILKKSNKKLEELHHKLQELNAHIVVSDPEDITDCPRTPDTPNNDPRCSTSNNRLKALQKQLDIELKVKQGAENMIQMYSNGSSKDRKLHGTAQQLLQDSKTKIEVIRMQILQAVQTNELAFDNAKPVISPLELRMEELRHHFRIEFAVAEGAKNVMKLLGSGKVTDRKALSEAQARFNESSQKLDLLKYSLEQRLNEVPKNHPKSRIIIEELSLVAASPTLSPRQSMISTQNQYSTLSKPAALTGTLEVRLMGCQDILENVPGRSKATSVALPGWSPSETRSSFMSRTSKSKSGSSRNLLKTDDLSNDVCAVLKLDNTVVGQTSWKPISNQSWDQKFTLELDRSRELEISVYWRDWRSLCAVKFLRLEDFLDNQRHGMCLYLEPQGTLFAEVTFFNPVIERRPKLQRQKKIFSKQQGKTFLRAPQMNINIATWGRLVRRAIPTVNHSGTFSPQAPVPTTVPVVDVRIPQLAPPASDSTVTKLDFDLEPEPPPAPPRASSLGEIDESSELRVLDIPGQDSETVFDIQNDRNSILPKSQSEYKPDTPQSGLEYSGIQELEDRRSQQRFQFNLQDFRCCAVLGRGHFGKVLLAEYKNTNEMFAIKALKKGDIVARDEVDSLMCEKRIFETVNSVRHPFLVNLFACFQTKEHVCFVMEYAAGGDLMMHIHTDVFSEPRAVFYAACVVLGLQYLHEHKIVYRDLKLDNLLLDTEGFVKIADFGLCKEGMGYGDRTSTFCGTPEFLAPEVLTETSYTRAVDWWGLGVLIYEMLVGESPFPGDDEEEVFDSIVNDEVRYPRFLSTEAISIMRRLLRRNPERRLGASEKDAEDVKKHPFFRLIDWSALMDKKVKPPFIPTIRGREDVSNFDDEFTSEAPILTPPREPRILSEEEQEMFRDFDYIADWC

Block 1
Target: Tyrosine-protein kinase Fgr (FGR, Homo sapiens, UniProt P09769)
UniProt P09769, sequence (whole entry, looked up): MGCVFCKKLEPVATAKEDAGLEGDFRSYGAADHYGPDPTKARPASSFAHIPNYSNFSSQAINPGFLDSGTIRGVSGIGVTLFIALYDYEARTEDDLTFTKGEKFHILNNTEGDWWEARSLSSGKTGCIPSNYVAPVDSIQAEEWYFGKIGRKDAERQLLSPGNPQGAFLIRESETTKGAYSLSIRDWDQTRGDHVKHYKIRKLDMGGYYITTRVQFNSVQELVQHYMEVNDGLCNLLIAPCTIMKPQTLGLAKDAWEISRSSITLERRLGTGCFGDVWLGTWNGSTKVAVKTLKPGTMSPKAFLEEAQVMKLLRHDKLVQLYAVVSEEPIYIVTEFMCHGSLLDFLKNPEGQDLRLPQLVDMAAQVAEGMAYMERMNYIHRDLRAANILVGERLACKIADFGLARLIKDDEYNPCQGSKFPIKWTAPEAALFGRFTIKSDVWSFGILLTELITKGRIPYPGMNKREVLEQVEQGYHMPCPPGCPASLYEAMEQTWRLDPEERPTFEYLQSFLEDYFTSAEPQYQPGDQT
Effect on: enzyme activity
Action: inhibitor
Tested at: 0.5 µM
Relative to: control
| SMILES | remaining activity [%] |
| --- | --- |
| O=c1c2ccccc2[nH]c(=S)n1CCN1CCC(=C(c2ccc(F)cc2)c2ccc(F)cc2)CC1 | 95.4 |
| N#CC(C#N)=C(N)/C(C#N)=C/c1ccc(O)cc1 | 98.7 |
| CNC(=O)c1cc(Oc2ccc(NC(=O)Nc3ccc(Cl)c(C(F)(F)F)c3)cc2)ccn1 | 88.7 |
| O=C(Nc1cccc(Nc2cc(Nc3cccc(C(F)(F)F)c3)ncn2)c1)C1CC1 | 96.4 |
| COc1cc2ncnc(Nc3ccc(F)c(Cl)c3)c2cc1OCCCN1CCOCC1 | 70.1 |
| Cn1c2ccccc2c2c3c(c4c5ccccc5n(CCC#N)c4c21)CNC3=O | 70.7 |
| Cc1cccc(-c2[nH]c(C(C)(C)C)nc2-c2ccc3c(c2)OCO3)n1 | 99.9 |
| Oc1ccc(-c2nc(-c3ccncc3)c(-c3ccc(F)cc3)[nH]2)cc1 | 93 |
| CN(C)c1ccc(C=C2C(=O)Nc3ccccc32)cc1 | 90 |
| Nc1[nH]nc2nc3ccccc3nc12 | 96.3 |
| Nc1ccc2ncnc(NCCc3ccc(Oc4ccccc4)cc3)c2c1 | 101 |
| CO[C@H]1C[C@@H]2CC[C@@H](C)[C@@](O)(O2)C(=O)C(=O)N2CCCC[C@H]2C(=O)O[C@H]([C@H](C)C[C@@H]2CC[C@@H](O)[C@H](OC)C2)CC(=O)[C@H](C)/C=C(\C)[C@@H](O)[C@@H](OC)C(=O)[C@H](C)C[C@H](C)/C=C/C=C/C=C/1C | 94.5 |
| COc1cc2ncnc(Nc3ccc(Oc4ccccc4)cc3)c2cc1OC | 8.91 |
| CCOC(=O)c1c(C)[nH]c(/C=C2\C(=O)Nc3ccccc32)c1C | 79.3 |
| Cc1nc(-c2ccccc2)c(-c2ccncc2)o1 | 89.7 |

Block 2
Target: DNA polymerase theta, ATPase domain (POLQ, Homo sapiens, UniProt O75417)
UniProt O75417, sequence (whole entry, unmodified, looked up): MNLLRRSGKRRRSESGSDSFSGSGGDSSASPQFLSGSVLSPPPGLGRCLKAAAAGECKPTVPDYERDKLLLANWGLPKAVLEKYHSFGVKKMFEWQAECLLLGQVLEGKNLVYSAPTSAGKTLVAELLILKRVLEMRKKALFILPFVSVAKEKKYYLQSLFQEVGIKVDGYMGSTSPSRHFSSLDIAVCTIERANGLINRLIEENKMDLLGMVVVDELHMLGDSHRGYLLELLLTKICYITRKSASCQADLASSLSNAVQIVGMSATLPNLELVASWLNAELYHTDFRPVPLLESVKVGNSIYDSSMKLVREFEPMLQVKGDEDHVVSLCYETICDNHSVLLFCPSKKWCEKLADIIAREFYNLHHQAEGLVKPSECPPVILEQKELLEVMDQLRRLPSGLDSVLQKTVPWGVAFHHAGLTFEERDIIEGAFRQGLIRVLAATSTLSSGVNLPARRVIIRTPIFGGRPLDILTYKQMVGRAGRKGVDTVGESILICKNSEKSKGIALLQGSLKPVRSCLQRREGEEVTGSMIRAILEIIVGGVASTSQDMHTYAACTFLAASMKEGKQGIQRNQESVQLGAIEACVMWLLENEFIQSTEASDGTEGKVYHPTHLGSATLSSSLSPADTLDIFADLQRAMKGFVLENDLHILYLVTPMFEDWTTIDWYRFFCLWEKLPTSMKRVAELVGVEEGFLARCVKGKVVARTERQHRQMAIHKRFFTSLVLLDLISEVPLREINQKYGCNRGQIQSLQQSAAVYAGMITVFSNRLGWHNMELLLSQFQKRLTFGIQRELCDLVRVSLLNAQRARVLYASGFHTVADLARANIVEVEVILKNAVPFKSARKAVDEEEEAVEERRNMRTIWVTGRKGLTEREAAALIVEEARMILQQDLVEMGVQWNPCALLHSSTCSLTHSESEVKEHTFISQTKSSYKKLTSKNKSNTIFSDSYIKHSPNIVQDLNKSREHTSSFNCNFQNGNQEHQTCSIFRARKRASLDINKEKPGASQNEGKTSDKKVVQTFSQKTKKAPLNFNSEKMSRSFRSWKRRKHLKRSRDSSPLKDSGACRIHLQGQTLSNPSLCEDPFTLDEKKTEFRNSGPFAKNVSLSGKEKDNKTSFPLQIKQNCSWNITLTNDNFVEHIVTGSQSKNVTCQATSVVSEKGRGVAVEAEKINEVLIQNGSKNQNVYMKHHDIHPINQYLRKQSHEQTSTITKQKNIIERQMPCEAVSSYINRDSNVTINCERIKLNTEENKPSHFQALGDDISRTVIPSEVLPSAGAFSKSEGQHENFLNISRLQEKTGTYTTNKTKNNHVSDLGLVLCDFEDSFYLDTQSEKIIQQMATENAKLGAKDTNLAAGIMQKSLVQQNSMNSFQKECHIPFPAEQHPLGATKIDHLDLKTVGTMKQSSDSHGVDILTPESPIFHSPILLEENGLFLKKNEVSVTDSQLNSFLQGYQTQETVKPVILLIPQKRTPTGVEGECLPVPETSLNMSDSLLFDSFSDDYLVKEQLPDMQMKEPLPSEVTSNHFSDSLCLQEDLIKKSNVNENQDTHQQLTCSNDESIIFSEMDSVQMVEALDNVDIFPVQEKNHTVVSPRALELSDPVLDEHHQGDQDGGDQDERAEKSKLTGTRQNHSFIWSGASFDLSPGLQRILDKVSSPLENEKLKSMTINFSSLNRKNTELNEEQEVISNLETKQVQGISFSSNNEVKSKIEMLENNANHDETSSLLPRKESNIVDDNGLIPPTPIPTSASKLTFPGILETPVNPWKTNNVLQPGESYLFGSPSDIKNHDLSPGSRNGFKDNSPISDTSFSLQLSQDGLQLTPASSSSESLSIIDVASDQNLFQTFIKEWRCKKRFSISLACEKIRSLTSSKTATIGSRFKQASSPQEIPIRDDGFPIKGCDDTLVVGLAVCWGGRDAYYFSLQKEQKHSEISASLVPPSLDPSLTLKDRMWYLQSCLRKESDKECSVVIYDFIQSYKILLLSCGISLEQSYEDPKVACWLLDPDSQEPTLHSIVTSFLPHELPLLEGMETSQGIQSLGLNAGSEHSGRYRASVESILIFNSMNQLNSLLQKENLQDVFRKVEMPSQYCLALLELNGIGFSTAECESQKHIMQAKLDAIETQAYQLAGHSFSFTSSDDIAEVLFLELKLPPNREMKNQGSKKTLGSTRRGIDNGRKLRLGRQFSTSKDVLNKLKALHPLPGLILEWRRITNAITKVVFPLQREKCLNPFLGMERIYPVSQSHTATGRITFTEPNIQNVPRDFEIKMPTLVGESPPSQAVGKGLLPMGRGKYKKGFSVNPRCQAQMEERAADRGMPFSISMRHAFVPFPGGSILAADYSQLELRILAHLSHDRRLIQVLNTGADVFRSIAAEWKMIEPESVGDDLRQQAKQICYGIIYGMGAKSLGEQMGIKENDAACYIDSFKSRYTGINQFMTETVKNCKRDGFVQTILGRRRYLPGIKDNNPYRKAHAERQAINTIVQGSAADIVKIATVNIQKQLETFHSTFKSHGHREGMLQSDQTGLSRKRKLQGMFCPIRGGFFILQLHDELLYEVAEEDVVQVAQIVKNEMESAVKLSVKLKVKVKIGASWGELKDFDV
Effect on: enzyme activity
Action: inhibitor
Tested at: 77 µM
Relative to: untreated
| Compound | remaining activity |
| --- | --- |
| CCOc1ccc(NC(C)=O)cc1 | 101% and 91.7% |
| O=C(Nc1nc2cccc(-c3ccc(CN4CCS(=O)(=O)CC4)cc3)n2n1)C1CC1 | 89.1% |
| CC(=O)N1CCN(c2ccc(OC[C@@H]3CO[C@@](Cn4ccnc4)(c4ccc(Cl)cc4Cl)O3)cc2)CC1 (racemic) | 134% and 157% |
| CCOC(=O)CC(=O)N1CCSC1COc1ccccc1OC (stereo not shown) | 99.7% |
| CCn1ccnc1CC1COc2ccccc2O1 (stereo not shown) | 98.9% |
| O=C1Cc2c([nH]c3ccc(Br)cc23)-c2ncccc2N1 | 97.6% and 92% |
| CCn1c(N)c(C(=O)NC)c(=O)c2ccc(C#C[C@@](C)(O)COC)nc21 | 102% |
| O=C(/C=C/c1ccccc1)NC(NC(=S)Nc1cccc2cccnc12)C(Cl)(Cl)Cl (stereo not shown) | 104% |
| CC(=O)OCC(CCn1cnc2cnc(N)nc21)COC(C)=O | 96.1% |

Block 3
Organism: Sarcocystis neurona
Effect on: parasite growth
Tested at: 10 µM
Time: 96 h
Setting: second screen
Relative to: untreated
| Compound | log2 fold change |
| --- | --- |
| CC(C)c1nc(CN(C)C(=O)N[C@H](C(=O)N[C@@H](Cc2ccccc2)C[C@H](O)[C@H](Cc2ccccc2)NC(=O)OCc2cncs2)C(C)C)cs1 | -0.18 |
| CCCCNC(=O)NS(=O)(=O)c1ccc(C)cc1 | 0.31 |
| C[C@H](CCC(=O)O)[C@H]1CC[C@H]2[C@@H]3C(=O)C[C@@H]4CC(=O)CC[C@]4(C)[C@H]3CC(=O)[C@]12C | 0.42 |
| Cc1ccnc2c1NC(=O)c1cccnc1N2C1CC1 | 0.46 |
| CN1CCN(CCCN2c3ccccc3Sc3ccc(Cl)cc32)CC1 | 0.1 |
| C[C@H]1C[C@@H]2[C@H]([C@@H](O)C[C@@]3(C)[C@H]2CC[C@]3(O)C(=O)CO)[C@@]2(C)C=CC(=O)C=C12 | 0.34 |
| CN(C)CC/C=C1/c2ccccc2COc2ccc(CC(=O)O)cc21 | 0.24 |
| CC(COc1ccccc1)N(CCCl)Cc1ccccc1 (stereo not shown) | 0.36 |
| C[C@H]1c2cccc(O)c2C(=O)C2=C(O)[C@]3(O)C(=O)C(C(N)=O)=C(O)[C@@H](N(C)C)[C@@H]3[C@@H](O)[C@@H]21 | -0.06 |
| COc1c(N2CCNC(C)C2)c(F)cc2c(=O)c(C(=O)O)cn(C3CC3)c12 (stereo not shown) | -0.18 |
| CCS(=O)(=O)CCn1c([N+](=O)[O-])cnc1C | 0.27 |
| CC(C)[C@H]1CC[C@H](C(=O)N[C@H](Cc2ccccc2)C(=O)O)CC1 | -0.09 |
| CC(C[N+](C)(C)C)OC(N)=O (stereo not shown) | 0.21 |

Block 4
SMILES: CS(=O)(=O)NCC[C@H](NC(=O)c1cncc2c1cnn2-c1ccc(F)cc1)c1ccnc(S(C)(=O)=O)c1
Effect on: cell-free assay
Method: competition with immobilised ligand
Tested at: 1 µM
| target | remaining binding |
| --- | --- |
| Receptor tyrosine-protein kinase erbB-4 (ERBB4, Homo sapiens, UniProt Q15303) | 95% |
| Cyclin-dependent kinase 15 (CDK15, Homo sapiens, UniProt Q96Q40) | 79% |
| Interferon-induced, double-stranded RNA-activated protein kinase (EIF2AK2, Homo sapiens, UniProt P19525) | 53% |
| Serine/threonine-protein kinase N2 (PKN2, Homo sapiens, UniProt Q16513) | 100% |
| Serine/threonine-protein kinase Nek4 (NEK4, Homo sapiens, UniProt P51957) | 100% |
| Rho-associated protein kinase 2 (ROCK2, Homo sapiens, UniProt O75116) | 100% |
| MAP kinase-interacting serine/threonine-protein kinase 1 (MKNK1, Homo sapiens, UniProt Q9BUB5) | 95% |
| Dual specificity mitogen-activated protein kinase kinase 6 (MAP2K6, Homo sapiens, UniProt P52564) | 82% |
| Interleukin-1 receptor-associated kinase 3 (IRAK3, Homo sapiens, UniProt Q9Y616) | 89% |

A few entries again (block 3):
| Compound | log2 fold change |
| --- | --- |
| CC(COc1ccccc1)N(CCCl)Cc1ccccc1 (stereo not shown) | 0.36 |
| C[C@H]1c2cccc(O)c2C(=O)C2=C(O)[C@]3(O)C(=O)C(C(N)=O)=C(O)[C@@H](N(C)C)[C@@H]3[C@@H](O)[C@@H]21 | -0.06 |
| COc1c(N2CCNC(C)C2)c(F)cc2c(=O)c(C(=O)O)cn(C3CC3)c12 (stereo not shown) | -0.18 |
| CCS(=O)(=O)CCn1c([N+](=O)[O-])cnc1C | 0.27 |
| CC(C)[C@H]1CC[C@H](C(=O)N[C@H](Cc2ccccc2)C(=O)O)CC1 | -0.09 |
| CC(C[N+](C)(C)C)OC(N)=O (stereo not shown) | 0.21 |
